Measured values collected from several papers.
Numbered parts are unrelated; each lists some results of a single study. “And” joins repeats or separate records; there may be more than shown.
UniProt P29320, sequence (whole entry, looked up): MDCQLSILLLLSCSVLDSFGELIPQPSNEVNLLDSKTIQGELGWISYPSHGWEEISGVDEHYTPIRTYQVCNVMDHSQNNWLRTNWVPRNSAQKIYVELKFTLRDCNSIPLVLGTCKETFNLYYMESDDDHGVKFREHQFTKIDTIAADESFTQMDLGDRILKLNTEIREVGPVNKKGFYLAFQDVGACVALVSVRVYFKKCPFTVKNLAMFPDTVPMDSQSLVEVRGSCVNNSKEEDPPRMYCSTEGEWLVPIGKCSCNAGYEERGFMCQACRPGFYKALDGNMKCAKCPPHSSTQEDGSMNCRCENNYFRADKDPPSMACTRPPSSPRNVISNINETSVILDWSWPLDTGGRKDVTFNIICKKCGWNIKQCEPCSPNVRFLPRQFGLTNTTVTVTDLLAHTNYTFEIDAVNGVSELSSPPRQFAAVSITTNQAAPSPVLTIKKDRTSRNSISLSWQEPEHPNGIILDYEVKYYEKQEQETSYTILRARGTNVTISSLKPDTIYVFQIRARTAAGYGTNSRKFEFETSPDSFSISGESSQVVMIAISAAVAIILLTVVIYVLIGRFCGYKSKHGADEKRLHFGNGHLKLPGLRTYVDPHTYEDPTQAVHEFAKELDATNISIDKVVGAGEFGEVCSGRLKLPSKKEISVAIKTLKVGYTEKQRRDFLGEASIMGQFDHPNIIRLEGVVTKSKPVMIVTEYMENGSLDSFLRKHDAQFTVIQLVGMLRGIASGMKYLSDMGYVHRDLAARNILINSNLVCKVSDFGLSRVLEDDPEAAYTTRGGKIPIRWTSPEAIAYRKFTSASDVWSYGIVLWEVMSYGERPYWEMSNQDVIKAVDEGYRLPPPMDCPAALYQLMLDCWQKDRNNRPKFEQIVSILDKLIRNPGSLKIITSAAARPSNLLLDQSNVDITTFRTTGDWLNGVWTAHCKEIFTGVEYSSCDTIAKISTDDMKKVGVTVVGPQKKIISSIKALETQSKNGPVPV
UniProt O14936, sequence (whole entry, looked up): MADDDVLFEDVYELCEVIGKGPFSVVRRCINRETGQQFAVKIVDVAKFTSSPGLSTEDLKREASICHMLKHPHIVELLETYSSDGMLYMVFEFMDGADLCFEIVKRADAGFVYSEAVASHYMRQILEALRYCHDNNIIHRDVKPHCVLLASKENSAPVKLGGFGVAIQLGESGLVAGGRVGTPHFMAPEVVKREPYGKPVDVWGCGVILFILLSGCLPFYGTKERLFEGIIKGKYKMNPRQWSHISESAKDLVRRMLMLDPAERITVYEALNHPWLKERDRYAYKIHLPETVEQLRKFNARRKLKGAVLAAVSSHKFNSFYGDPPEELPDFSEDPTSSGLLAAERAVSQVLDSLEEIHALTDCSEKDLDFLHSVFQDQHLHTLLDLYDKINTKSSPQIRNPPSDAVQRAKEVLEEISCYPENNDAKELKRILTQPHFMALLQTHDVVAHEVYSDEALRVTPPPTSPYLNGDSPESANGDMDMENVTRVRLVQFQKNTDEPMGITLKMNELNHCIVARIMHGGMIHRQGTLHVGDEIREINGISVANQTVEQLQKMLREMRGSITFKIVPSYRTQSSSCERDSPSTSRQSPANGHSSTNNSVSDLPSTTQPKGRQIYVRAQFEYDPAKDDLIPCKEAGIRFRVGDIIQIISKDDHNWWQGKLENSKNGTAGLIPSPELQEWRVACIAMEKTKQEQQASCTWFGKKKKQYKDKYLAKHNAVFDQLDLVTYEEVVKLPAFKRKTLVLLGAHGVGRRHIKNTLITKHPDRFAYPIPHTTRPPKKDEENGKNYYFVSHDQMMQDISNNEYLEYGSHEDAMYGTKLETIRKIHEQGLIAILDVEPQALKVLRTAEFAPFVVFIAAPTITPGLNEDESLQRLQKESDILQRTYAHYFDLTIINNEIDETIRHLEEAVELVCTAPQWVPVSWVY
UniProt Q9P1W9, sequence (whole entry, looked up): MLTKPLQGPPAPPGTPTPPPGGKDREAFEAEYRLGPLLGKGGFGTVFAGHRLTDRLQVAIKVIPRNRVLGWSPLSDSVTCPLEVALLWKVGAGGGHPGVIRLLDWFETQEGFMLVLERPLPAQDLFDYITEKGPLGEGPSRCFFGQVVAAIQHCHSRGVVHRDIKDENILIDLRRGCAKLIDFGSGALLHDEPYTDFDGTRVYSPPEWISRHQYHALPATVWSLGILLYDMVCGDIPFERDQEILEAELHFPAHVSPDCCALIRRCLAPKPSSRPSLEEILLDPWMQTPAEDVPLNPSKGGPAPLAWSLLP
UniProt O43283, sequence (whole entry, looked up): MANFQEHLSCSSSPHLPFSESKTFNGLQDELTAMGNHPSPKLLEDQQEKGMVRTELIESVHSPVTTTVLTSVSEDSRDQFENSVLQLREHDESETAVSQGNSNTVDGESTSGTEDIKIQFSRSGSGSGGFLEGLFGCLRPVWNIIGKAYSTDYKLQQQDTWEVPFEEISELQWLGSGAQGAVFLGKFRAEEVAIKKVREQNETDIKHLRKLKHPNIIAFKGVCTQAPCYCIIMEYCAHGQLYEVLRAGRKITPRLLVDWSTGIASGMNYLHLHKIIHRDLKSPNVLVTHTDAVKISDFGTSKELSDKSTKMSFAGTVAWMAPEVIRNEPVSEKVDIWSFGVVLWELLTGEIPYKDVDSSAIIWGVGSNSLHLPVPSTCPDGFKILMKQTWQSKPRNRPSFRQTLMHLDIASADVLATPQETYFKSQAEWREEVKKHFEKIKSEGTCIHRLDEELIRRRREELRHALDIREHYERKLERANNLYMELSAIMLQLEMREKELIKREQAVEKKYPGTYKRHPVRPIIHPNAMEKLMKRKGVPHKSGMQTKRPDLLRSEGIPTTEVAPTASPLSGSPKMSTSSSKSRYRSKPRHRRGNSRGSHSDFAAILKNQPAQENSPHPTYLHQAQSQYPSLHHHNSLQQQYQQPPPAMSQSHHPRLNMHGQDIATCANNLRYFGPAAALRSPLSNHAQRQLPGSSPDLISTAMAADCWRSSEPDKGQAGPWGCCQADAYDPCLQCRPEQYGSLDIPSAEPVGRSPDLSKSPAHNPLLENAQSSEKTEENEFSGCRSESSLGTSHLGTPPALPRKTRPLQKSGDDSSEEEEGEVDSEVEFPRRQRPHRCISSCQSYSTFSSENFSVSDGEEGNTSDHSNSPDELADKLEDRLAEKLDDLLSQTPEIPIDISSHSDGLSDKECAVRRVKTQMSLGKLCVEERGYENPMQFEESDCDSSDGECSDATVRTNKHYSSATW
UniProt P57058, sequence (whole entry, looked up): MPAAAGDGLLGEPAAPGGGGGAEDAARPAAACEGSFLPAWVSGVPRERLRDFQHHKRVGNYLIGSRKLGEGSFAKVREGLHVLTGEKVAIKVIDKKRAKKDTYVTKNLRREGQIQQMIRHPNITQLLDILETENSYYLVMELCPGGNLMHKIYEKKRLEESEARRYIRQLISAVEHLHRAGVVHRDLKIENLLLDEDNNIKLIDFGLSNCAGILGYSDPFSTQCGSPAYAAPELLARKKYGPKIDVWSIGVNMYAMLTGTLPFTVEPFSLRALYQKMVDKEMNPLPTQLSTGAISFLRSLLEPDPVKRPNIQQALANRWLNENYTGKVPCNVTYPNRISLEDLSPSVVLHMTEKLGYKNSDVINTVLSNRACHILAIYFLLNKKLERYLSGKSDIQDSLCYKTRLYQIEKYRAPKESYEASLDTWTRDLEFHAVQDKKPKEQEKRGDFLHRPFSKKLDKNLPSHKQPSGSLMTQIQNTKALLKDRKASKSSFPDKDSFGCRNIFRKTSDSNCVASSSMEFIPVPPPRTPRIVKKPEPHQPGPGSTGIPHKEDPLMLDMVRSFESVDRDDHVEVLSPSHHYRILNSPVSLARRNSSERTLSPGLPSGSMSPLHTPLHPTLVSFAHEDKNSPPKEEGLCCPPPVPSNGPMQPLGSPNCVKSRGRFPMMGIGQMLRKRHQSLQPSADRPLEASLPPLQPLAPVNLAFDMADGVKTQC

Series 1 — cell line: mouse MPNST tumor cells; method: high-content nuclear imaging; item: cell number; tested at: 10 µM; time: 12 h; setting: mean of 2 replicates; baseline: plate mean; direction: higher = more cells; measurement: nuclei count
Cc1cc2c(cc1C(F)(F)F)N(C(=O)Nc1ccc(Oc3cccnc3C)nc1)CC2: 2.19 z-score
CS(=O)(=O)Nc1ccc(-c2coc3cc(OCc4cccc(C(=O)O)c4)ccc3c2=O)cc1: 1.74 z-score
N#Cc1cnc2cnc(NCc3cccnc3)cc2c1Nc1ccc(F)c(Cl)c1: 0.273 z-score
CCS(=O)(=O)c1ncc(Cl)c(C(=O)N(Cc2ccc(Cl)cc2)Cc2ccco2)n1: -5.32 z-score
CC[N+](C)(C)Cc1ccccc1Br: 3.89 z-score and 1.73 z-score

Series 2 — cell line: A-375; tested at: 100 µM; time: 36 h; measurement: viability
c1ccc(CC2=NCCN2)cc1: 112%
OC[C@H]1O[C@@H](n2cnc3c(O)ncnc32)[C@H](O)[C@@H]1O: 88% and 113%
O=c1ccc2ccc(OCCCCN3CCN(c4cccc5sccc45)CC3)cc2[nH]1: 1.34%

Series 3 — method: protein-binding microarray; form: double-stranded DNA, one strand shown; medium: in vitro; tested at: not given; direction: higher = stronger binding; measurement: E-score
Target: Transcriptional repressor CTCF (CTCF, Homo sapiens, UniProt P49711, residues 1-727, full length assumed)
UniProt P49711, sequence (whole entry, looked up): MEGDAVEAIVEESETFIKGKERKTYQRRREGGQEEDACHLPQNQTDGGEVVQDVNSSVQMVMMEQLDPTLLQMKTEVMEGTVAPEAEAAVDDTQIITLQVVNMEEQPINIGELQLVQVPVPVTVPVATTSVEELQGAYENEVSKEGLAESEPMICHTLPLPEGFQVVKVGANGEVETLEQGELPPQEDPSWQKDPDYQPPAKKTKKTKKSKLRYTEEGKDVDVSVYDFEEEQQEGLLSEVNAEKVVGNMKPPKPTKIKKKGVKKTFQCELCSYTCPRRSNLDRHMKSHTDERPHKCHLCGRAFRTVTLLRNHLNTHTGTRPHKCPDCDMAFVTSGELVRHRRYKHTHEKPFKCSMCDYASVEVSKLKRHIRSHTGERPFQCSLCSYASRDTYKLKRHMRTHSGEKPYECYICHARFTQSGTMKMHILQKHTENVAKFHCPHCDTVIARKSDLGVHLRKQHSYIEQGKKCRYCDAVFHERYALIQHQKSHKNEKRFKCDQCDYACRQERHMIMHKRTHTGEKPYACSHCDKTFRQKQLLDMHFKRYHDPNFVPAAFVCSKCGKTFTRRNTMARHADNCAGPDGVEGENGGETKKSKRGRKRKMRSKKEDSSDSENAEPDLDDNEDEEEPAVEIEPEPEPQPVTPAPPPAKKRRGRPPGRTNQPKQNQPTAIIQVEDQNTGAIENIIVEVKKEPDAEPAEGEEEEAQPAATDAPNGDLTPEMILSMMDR
Setting: k-mer, scored over probes, only values ≥0.25
AACATATA: 0.349
AATATTCA: 0.272
GCGACGTA: 0.28
ATTAATAC: 0.321
TACTACAA: 0.315
AAGTAAAT: 0.252
AAACGTAA: 0.3
TCGCATAA: 0.253

Series 4 — read-out: cell-free assay; method: competition with immobilised ligand; tested at: 1 µM; measurement: remaining binding
Structure (SMILES): O=C(Nc1ccc(Oc2ccc(F)cc2)cc1)N1CCc2ncccc2[C@H]1c1ccc(F)cc1
LCK (Homo sapiens, UniProt P06239): 94%
MAP3K10 (Homo sapiens, UniProt Q02779): 100%
CASK (Homo sapiens, UniProt O14936): 100%
EPHA3 (Homo sapiens, UniProt P29320): 91%
MAP3K13 (Homo sapiens, UniProt O43283): 98%
HUNK (Homo sapiens, UniProt P57058): 99%
PDPK1 (Homo sapiens, UniProt O15530): 88%
WNK2 (Homo sapiens, UniProt Q9Y3S1): 88%
PIM2 (Homo sapiens, UniProt Q9P1W9): 93%
RET (Homo sapiens, UniProt P07949, V804L): 95%
PRKCH (Homo sapiens, UniProt P24723): 93%
PAK6 (Homo sapiens, UniProt Q9NQU5): 100%
CDK8 (Homo sapiens, UniProt P49336): 95%
